{"data": "Values quoted from earlier work that unrelated publications cite", "UniProt Q6DT37, sequence (whole entry, looked up)": "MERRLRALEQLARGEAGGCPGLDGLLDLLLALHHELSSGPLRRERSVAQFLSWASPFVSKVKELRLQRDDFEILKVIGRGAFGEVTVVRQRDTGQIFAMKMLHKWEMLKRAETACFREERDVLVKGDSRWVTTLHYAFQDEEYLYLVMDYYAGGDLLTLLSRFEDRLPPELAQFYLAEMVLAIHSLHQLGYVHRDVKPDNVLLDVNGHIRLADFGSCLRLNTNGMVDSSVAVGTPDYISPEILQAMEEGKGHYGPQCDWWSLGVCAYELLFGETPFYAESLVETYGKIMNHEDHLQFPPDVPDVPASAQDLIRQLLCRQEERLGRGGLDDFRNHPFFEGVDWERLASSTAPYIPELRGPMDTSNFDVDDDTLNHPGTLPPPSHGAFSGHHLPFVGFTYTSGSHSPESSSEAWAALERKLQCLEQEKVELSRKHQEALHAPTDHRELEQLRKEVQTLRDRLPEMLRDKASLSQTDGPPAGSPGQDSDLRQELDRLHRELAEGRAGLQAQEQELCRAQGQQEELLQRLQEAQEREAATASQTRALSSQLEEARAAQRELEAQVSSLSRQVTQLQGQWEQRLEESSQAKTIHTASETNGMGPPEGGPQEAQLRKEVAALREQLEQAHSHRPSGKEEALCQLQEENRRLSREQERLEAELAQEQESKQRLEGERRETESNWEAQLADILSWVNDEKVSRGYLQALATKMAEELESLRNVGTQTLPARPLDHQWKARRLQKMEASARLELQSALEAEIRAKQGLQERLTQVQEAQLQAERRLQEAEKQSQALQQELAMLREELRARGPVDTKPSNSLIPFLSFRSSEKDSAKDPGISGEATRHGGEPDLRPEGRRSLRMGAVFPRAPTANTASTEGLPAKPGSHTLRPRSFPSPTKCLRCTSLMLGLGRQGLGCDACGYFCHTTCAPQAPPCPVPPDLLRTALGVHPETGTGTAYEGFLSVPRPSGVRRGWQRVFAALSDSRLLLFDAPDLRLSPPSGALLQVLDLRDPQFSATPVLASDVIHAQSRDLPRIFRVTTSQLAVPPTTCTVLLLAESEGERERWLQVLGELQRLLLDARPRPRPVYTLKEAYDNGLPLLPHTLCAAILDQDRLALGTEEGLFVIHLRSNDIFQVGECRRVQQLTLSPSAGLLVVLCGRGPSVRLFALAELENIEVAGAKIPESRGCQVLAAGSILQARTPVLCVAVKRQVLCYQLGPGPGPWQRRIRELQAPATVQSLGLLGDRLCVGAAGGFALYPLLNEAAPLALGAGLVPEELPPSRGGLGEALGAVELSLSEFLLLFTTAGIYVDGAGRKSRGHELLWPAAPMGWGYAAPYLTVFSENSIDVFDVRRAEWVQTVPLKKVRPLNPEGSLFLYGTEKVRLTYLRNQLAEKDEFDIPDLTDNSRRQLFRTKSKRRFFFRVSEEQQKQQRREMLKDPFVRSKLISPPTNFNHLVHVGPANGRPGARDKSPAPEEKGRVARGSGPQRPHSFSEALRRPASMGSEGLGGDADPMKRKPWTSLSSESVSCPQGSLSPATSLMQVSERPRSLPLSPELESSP"}
{"SMILES": "CCc1c(Cl)c(O)c(Cl)c(O)c1C(=O)O[C@H]1[C@H](O)[C@H](OC)[C@H](OC/C2=C\\C=C\\C[C@H](O)/C(C)=C/[C@H](CC)[C@@H](O[C@@H]3OC(C)(C)[C@@H](OC(=O)C(C)C)[C@H](O)[C@@H]3O)/C(C)=C/C(C)=C/C[C@@H]([C@@H](C)O)OC2=O)O[C@@H]1C", "target or system": "Escherichia coli", "strain": "ATCC 25922", "endpoint": "MIC", "value": "> 128 mg/L"}
{"SMILES": "CC(C)(O/N=C(\\C(=O)N[C@@H]1C(=O)N2C(C(=O)[O-])=C(C[n+]3ccccc3)CS[C@H]12)c1csc(N)n1)C(=O)O", "target or system": "Escherichia coli", "strain": "clinical isolate RKI-No_582/16", "endpoint": "MIC", "value": "4 mg/L"}
{"SMILES": "CCN1CCN(c2cc3c(cc2F)c(=O)c(C(=O)O)cn3C2CC2)CC1", "target or system": "Escherichia coli", "endpoint": "MIC", "value": "16 mg/L"}
{"SMILES": "FC(F)(F)c1ccc(Oc2ccc(-c3noc(-c4ccc5[nH]ccc5c4)n3)cc2)cc1", "target or system": "Escherichia coli", "strain": "ATCC 25922", "endpoint": "MIC", "value": "> 128 mg/L"}
{"SMILES": "C[C@H]1COc2c(N3CCN(C)CC3)c(F)cc3c(=O)c(C(=O)O)cn1c23", "target or system": "Escherichia coli", "strain": "ATCC BAA-2469", "endpoint": "MIC", "value": "16 mg/L"}
{"SMILES": "CNC(C)C1CCC(N)C(OC2C(N)CC(N)C(OC3OCC(C)(O)C(NC)C3O)C2O)O1 (stereo not shown)", "target or system": "Escherichia coli", "strain": "clinical isolate RKI-No_525/16", "endpoint": "MIC", "value": "≤ 0.5 mg/L"}
{"SMILES": "COc1ccc2cc3[n+](cc2c1OC)CCc1cc2c(cc1-3)OCO2", "target or system": "Escherichia coli", "endpoint": "MIC", "value": "512 mg/L"}
{"SMILES": "CN(C)c1cc(NC(=O)CNC(C)(C)C)c(O)c2c1C[C@H]1C[C@H]3[C@H](N(C)C)C(O)=C(C(N)=O)C(=O)[C@@]3(O)C(O)=C1C2=O", "target or system": "Escherichia coli", "strain": "ATCC 25922", "endpoint": "MIC", "value": "0.03 to 0.25 mg/L"}
{"SMILES": "NC[C@H]1O[C@H](O[C@H]2[C@H](O)[C@@H](O[C@H]3O[C@H](CO)[C@@H](O)[C@H](N)[C@H]3O)[C@H](N)C[C@@H]2N)[C@H](O)[C@@H](O)[C@@H]1O", "target or system": "Escherichia coli", "endpoint": "MIC", "value": "2 mg/L"}
{"SMILES": "CC1(C)S[C@@H]2[C@H](NC(=O)[C@H](N)c3ccccc3)C(=O)N2[C@H]1C(=O)O", "target or system": "Escherichia coli", "strain": "clinical isolate RKI-No_867/14", "endpoint": "MIC", "value": "> 16 mg/L"}
{"SMILES": "CC[C@H](C)CCCCC(=O)N[C@@H](CCN)C(=O)N[C@H](C(=O)N[C@@H](CCN)C(=O)N[C@H]1CCNC(=O)[C@H]([C@@H](C)O)NC(=O)[C@H](CCN)NC(=O)[C@H](CCN)NC(=O)[C@H](CC(C)C)NC(=O)[C@@H](CC(C)C)NC(=O)[C@H](CCN)NC1=O)[C@@H](C)O", "target or system": "Escherichia coli", "strain": "ATCC BAA-2469", "endpoint": "MIC", "value": "0.125 mg/L"}
{"SMILES": "Nc1cc(C(F)(F)F)c(-c2nc(N3CCOCC3)nc(N3CCOCC3)n2)cn1", "target or system": "Serine/threonine-protein kinase MRCK gamma (CDC42BPG, Homo sapiens, UniProt Q6DT37)", "effect on": "enzyme activity", "concentration": "10 µM", "reference": "untreated", "endpoint": "remaining activity", "value": "81%"}
{"SMILES": "NC[C@H]1O[C@H](O[C@H]2[C@H](O)[C@@H](O[C@H]3O[C@H](CO)[C@@H](O)[C@H](N)[C@H]3O)[C@H](N)C[C@@H]2N)[C@H](N)C[C@@H]1O", "target or system": "Escherichia coli", "strain": "ATCC 25922", "endpoint": "MIC", "value": "0.25 to 1 mg/L"}
{"SMILES": "CS(=O)(=O)c1ccc([C@@H](O)[C@@H](CF)NC(=O)C(Cl)Cl)cc1", "target or system": "Escherichia coli", "endpoint": "MIC", "value": "2 mg/L"}
{"SMILES": "CC(C)(O/N=C(\\C(=O)N[C@@H]1C(=O)N2C(C(=O)[O-])=C(C[n+]3ccccc3)CS[C@H]12)c1csc(N)n1)C(=O)O", "target or system": "Escherichia coli", "strain": "ATCC BAA-2469", "endpoint": "MIC", "value": "> 2050 mg/L"}
{"SMILES": "CCC[C@@H]1C[C@@H](C(=O)N[C@@H]([C@H]2O[C@H](SC)[C@H](O)[C@@H](O)[C@H]2O)[C@@H](C)O)N(C)C1", "target or system": "Escherichia coli", "endpoint": "MIC", "value": "512 mg/L"}
{"note": "A few entries again:"}
{"SMILES": "FC(F)(F)c1ccc(Oc2ccc(-c3noc(-c4ccc5[nH]ccc5c4)n3)cc2)cc1", "target or system": "Escherichia coli", "strain": "ATCC 25922", "endpoint": "MIC", "value": "> 128 mg/L"}
{"SMILES": "C[C@H]1COc2c(N3CCN(C)CC3)c(F)cc3c(=O)c(C(=O)O)cn1c23", "target or system": "Escherichia coli", "strain": "ATCC BAA-2469", "endpoint": "MIC", "value": "16 mg/L"}
